Measured values from different studies.
Each line is one published result; not all experiments were run side by side. ± gives the spread as reported.
Organism: Plasmodium falciparum

Compound = CCCCc1cc(CN(Cc2ccccn2)Cc2ccccn2)c(O)c(CN(Cc2ccccn2)Cc2ccccn2)c1; effect on = growth; technique = [3H]hypoxanthine incorporation; strain = W2 chloroquine-resistant; time = 48 h; IC50 = 0.394 ± 0.049 µM
Compound = CC[C@H](C)[C@@H]1NC(=O)[C@H](CCCCN)NC(=O)[C@H](CCCCN)NC(=O)[C@H](Cc2ccc(O)cc2)NC(=O)[C@H](CC(C)C)NC(=O)[C@@H]2CCCN2C(=O)[C@H](C)NC(=O)CNC(=O)CNC(=O)[C@H](CO)NC(=O)CNC(=O)CNC(=O)[C@H](CO)NC(=O)[C@H](CCC(=O)O)NC(=O)[C@H](CC(C)C)NC(=O)[C@H](CC(C)C)NC(=O)[C@H](CCCNC(=N)N)NC(=O)[C@H](CCCCN)NC(=O)[C@H]([C@@H](C)CC)NC(=O)[C@H]([C@@H](C)CC)NC(=O)[C@H](CCCCN)NC(=O)[C@H](CCCCN)NC(=O)[C@H](Cc2ccc(O)cc2)NC(=O)[C@H](CC(C)C)NC(=O)[C@@H]2CCCN2C(=O)[C@H](C)NC(=O)CNC(=O)CNC(=O)[C@H](CO)NC(=O)CNC(=O)CNC(=O)[C@H](CO)NC(=O)[C@H](CCC(=O)O)NC(=O)[C@H](CC(C)C)NC(=O)[C@H](CC(C)C)NC(=O)[C@H](CCCNC(=N)N)NC(=O)[C@H](CCCCN)NC(=O)[C@H]([C@@H](C)CC)NC1=O; effect on = parasite growth; strain = 3D7; time = 72 h; notes = Albumax II medium, no serum; IC50 = 5.3 ± 0.4 µM
Compound = COc1ccc2c(=O)c3cc(OS(=O)(=O)C(F)(F)F)ccc3[nH]c2c1; effect on = parasite growth; IC50 = 0.0607 µM
Compound = COC1=CC(c2ccc[nH]2)=NC12O[C@@H](C)C[C@@H]1CCCCC(=O)CCc3ccc([nH]3)[C@H]12 (stereo partly shown); effect on = parasite growth; strain = 7G8; notes = drug-resistant strain, blood stage; IC50 = 0.199 µM
Compound = COc1ccc(-c2cn(C3CCCC3)c3ncnc(N)c23)cc1; effect on = merozoite invasion of erythrocytes; strain = FVO; IC50 = 9.8 µM
Compound = COC(=O)[C@@H]1Cc2c([nH]c3ccccc23)[C@@H](c2cccnc2)N1; effect on = parasite growth; time = 48 h; notes = drug-resistant strain, blood stage; IC50 = 2.12 µg/mL
Compound = CC(C)(C)OC(=O)N[C@H](Cc1ccccc1)[C@@H](O)CN1CCC(N2CCCCC2)CC1; effect on = blood-stage growth; technique = SYBR Green I fluorescence; strain = IPC4912 (MRA-1241) artemisinin-resistant; time = 72 h; IC50 = 0.785 ± 0.0209 µM
Compound = CCc1c(C)[nH]c(C=NC23CC4CC(CC(C4)C2)C3)c1C; effect on = parasite growth; strain = Dd2, chloroquine-resistant; IC50 = 0.08 µM
Compound = C=C1[C@@H]([C@@]2(C)C=CC(=O)C(C)(C)[C@@H]2CC(=O)OC)[C@@H](OC(C)=O)[C@H](OC(C)=O)[C@@]2(C)[C@H](c3ccoc3)C[C@H]3O[C@]132; technique = [3H]hypoxanthine incorporation; strain = W2, chloroquine-resistant; IC50 = 14.4 ± 0.5 µM
Compound = Oc1c(CN(Cc2ccccn2)Cc2ccccn2)cc(CCn2cc(COCCOCCOCCOCc3cn(CCc4cc(CN(Cc5ccccn5)Cc5ccccn5)c(O)c(CN(Cc5ccccn5)Cc5ccccn5)c4)nn3)nn2)cc1CN(Cc1ccccn1)Cc1ccccn1; effect on = growth; technique = [3H]hypoxanthine incorporation; strain = HB3 chloroquine-sensitive; time = 48 h; IC50 = 0.023 ± 0.003 µM
Compound = CC[C@H](C)[C@@H]1NC(=O)[C@H](CCCCN)NC(=O)[C@H](CCCCN)NC(=O)[C@H](Cc2ccc(O)cc2)NC(=O)[C@H](CC(C)C)NC(=O)[C@@H]2CCCN2C(=O)CNC(=O)CNC(=O)[C@@H](NC(=O)CN)CSSC[C@@H](C(=O)N[C@@H](CCC(=O)O)C(=O)N[C@@H](CO)C(N)=O)NC(=O)[C@H](CC(C)C)NC(=O)[C@H](CCCCN)NC(=O)[C@H](CCCCN)NC(=O)[C@H]([C@@H](C)CC)NC(=O)[C@H]([C@@H](C)CC)NC(=O)[C@H](CCCCN)NC(=O)[C@H](CCCCN)NC(=O)[C@H](Cc2ccc(O)cc2)NC(=O)[C@H](CC(C)C)NC(=O)[C@@H]2CCCN2C(=O)[C@H](C)NC(=O)CNC(=O)CNC(=O)[C@H](CO)NC(=O)CNC(=O)CNC(=O)[C@H](CO)NC(=O)[C@H](CCCCN)NC(=O)[C@H](CC(C)C)NC(=O)[C@H](CC(C)C)NC(=O)[C@H](CCCCN)NC(=O)[C@H](CCCCN)NC(=O)[C@H]([C@@H](C)CC)NC1=O; effect on = parasite growth; strain = 3D7; time = 72 h; notes = Albumax II medium, no serum; IC50 = 5 ± 0.1 µM
Compound = COc1cccc2c(-c3ccc(O)c4c3CC(C)(C)N=C4)ccc(OC(C)C)c12; effect on = parasite growth; technique = SYBR Green; strain = W2; time = 96 h; notes = drug-resistant strain, blood stage; IC50 = 0.238 µM
Compound = COc1cc2c3cc1Oc1cc(ccc1O)CC1c4c(cc(OC)c(O)c4Oc4ccc(cc4)CC3N(C)CC2)CCN1C (stereo not shown); effect on = parasite growth; technique = SYBR Green I; strain = Cam3.1 R539T (MRA-1240); IC50 = > 1 µM
Compound = CC1N=C(CCCCCCCCCCC2=CC(CCCCCCCCCCC3=NC(C)C(O)CC3)C3CCCN3C2)CCC1O (stereo not shown); technique = pLDH; strain = W2 chloroquine-resistant; IC50 = 0.6 ± 0.005 µg/mL
Compound = COC1=CC(c2ccc[nH]2)=NC1=CNC1CC1; effect on = parasite growth; strain = 7G8, chloroquine-resistant; IC50 = 0.946 µM
Compound = CC[C@H](C)[C@@H]1NC(=O)[C@H](CCCCN)NC(=O)[C@H](CCCCN)NC(=O)[C@H](Cc2ccc(O)cc2)NC(=O)[C@H](CC(C)C)NC(=O)[C@@H]2CCCN2C(=O)[C@H](C)NC(=O)CNC(=O)CNC(=O)[C@H](CO)NC(=O)CNC(=O)CNC(=O)[C@H](CO)NC(=O)[C@H](CCC(=O)O)NC(=O)[C@H](CC(C)C)NC(=O)[C@H](CC(C)C)NC(=O)[C@H](CCCCN)NC(=O)[C@H](CCCCN)NC(=O)[C@H]([C@@H](C)CC)NC(=O)[C@H]([C@@H](C)CC)NC(=O)[C@H](CCCCN)NC(=O)[C@H](CCCCN)NC(=O)[C@H](Cc2ccc(O)cc2)NC(=O)[C@H](CC(C)C)NC(=O)[C@@H]2CCCN2C(=O)[C@H](C)NC(=O)CNC(=O)[C@@H](NC(=O)CN)CSSC[C@@H](C(=O)N[C@@H](CCC(=O)O)C(=O)N[C@@H](CO)C(=O)O)NC(=O)[C@H](CC(C)C)NC(=O)[C@H](CCCCN)NC(=O)[C@H](CCCCN)NC(=O)[C@H]([C@@H](C)CC)NC1=O; effect on = parasite growth; strain = 3D7; time = 72 h; notes = Albumax II medium, no serum; IC50 = 21.6 ± 1.4 µM
Compound = CCCCCCN=Cc1[nH]c(-c2ccc[nH]2)cc1OC; effect on = parasite growth; strain = 7G8, chloroquine-resistant; IC50 = 0.025 µM
Compound = Cc1ccc(C(C)C)cc1.Cn1ccnc1CNCCNc1ccnc2cc(Cl)ccc12.[Cl-].[Cl][Ru+]; effect on = parasite growth; technique = parasite lactate dehydrogenase; strain = D10 chloroquine-sensitive; IC50 = 4.53 ± 0.69 µM
Compound = CC1=CC(c2ccc[nH]2)=NC1=CNC1CCCCCCC1; effect on = parasite growth; strain = 7G8, chloroquine-resistant; IC50 = > 0.25 µM
Compound = COc1cccc2c(-c3ccc4c(c3O)[C@@H](C)N[C@H](C)C4)c(CO)cc(OC)c12; effect on = parasite growth; technique = SYBR Green; strain = W2; time = 96 h; notes = drug-resistant strain, blood stage; IC50 = 0.084 µM
Compound = COc1ccc2cc1Oc1cc3c(cc1OC)CCN(C)C3Cc1ccc(cc1)Oc1c(O)c(OC)cc3c1C(C2)N(C)CC3 (stereo not shown); effect on = parasite growth; technique = SYBR green I; strain = Cam3.1 R539T (MRA1240); IC50 = 0.0648 ± 0.0089 µM
Compound = CC[C@H](C)[C@@H]1NC(=O)[C@H](CCCCN)NC(=O)[C@H](CCCCN)NC(=O)[C@H](Cc2ccc(O)cc2)NC(=O)[C@H](CC(C)C)NC(=O)[C@@H]2CCCN2C(=O)[C@H](C)NC(=O)CNC(=O)CNC(=O)[C@H](CO)NC(=O)CNC(=O)CNC(=O)[C@H](CO)NC(=O)[C@H](CCC(=O)O)NC(=O)[C@H](CC(C)C)NC(=O)[C@H](CC(C)C)NC(=O)[C@H](CCCCN)NC(=O)[C@H](CCCCN)NC(=O)[C@H]([C@@H](C)CC)NC(=O)[C@H]([C@@H](C)CC)NC(=O)[C@H](CCCCN)NC(=O)[C@H](CCCCN)NC(=O)[C@H](Cc2ccc(O)cc2)NC(=O)[C@H](CC(C)C)NC(=O)[C@@H]2CCCN2C(=O)[C@H](C)NC(=O)CNC(=O)CNC(=O)[C@H](CO)NC(=O)CNC(=O)CNC(=O)[C@H](CO)NC(=O)[C@H](CCC(=O)O)NC(=O)[C@H](CC(C)C)NC(=O)[C@H](CC(C)C)NC(=O)[C@H](CCCCN)NC(=O)[C@H](CCCCN)NC(=O)[C@H]([C@@H](C)CC)NC1=O; effect on = parasite growth; strain = 3D7; time = 72 h; notes = 5% serum plus Albumax II; IC50 = 9 ± 1.3 µM
Compound = CCCCN=Cc1[nH]c(-c2ccc[nH]2)cc1OC; effect on = parasite growth; strain = 7G8, chloroquine-resistant; IC50 = 0.0746 µM
Compound = CC[C@H](C)[C@@H]1NC(=O)[C@H](CCCCN)NC(=O)[C@H](CCCCN)NC(=O)[C@H](Cc2ccc(O)cc2)NC(=O)[C@H](CC(C)C)NC(=O)[C@@H]2CCCN2C(=O)[C@H](C)NC(=O)CNC(=O)CNC(=O)[C@H](CO)NC(=O)CNC(=O)CNC(=O)[C@H](CC(N)=O)NC(=O)[C@H](CCC(=O)O)NC(=O)[C@H](CC(C)C)NC(=O)[C@H](CC(C)C)NC(=O)[C@H](CCCCN)NC(=O)[C@H](CCCCN)NC(=O)[C@H]([C@@H](C)CC)NC(=O)[C@H]([C@@H](C)CC)NC(=O)[C@H](CCCCN)NC(=O)[C@H](CCCCN)NC(=O)[C@H](Cc2ccc(O)cc2)NC(=O)[C@H](CC(C)C)NC(=O)[C@@H]2CCCN2C(=O)[C@H](C)NC(=O)CNC(=O)CNC(=O)[C@H](CO)NC(=O)CNC(=O)CNC(=O)[C@H](CC(N)=O)NC(=O)[C@H](CCC(=O)O)NC(=O)[C@H](CC(C)C)NC(=O)[C@H](CC(C)C)NC(=O)[C@H](CCCCN)NC(=O)[C@H](CCCCN)NC(=O)[C@H]([C@@H](C)CC)NC1=O; effect on = parasite growth; strain = 3D7; time = 72 h; notes = Albumax II medium, no serum; IC50 = 6.3 ± 0.7 µM
Compound = CCC1=CC(=CNC2CCCCCC2)N=C1c1ccc[nH]1; effect on = parasite growth; strain = 7G8, chloroquine-resistant; IC50 = 1.46 µM
Compound = O=C(O)[C@@H]1Cc2c([nH]c3ccccc23)[C@@H](c2ccc(I)cc2F)N1; effect on = parasite growth; strain = Dd2; time = 72 h; IC50 = 3.34 ± 0.496 µM
Compound = c1cncc(CCCOCCCCCCCCOC2CCCCO2)c1 (stereo not shown); technique = anti-HRPII ELISA; strain = W2 chloroquine-resistant; time = 72 h; IC50 = 37.7 ± 0.2 µM
Compound = CCC1=CC(c2ccc[nH]2)=NC1=CNC1CCCCCCC1; effect on = parasite growth; strain = Dd2, chloroquine-resistant; IC50 = > 0.25 µM
Compound = CC[C@H](C)[C@@H]1NC(=O)[C@H](CCCCN)NC(=O)[C@H](CCCCN)NC(=O)[C@H](Cc2ccc(O)cc2)NC(=O)[C@H](CC(C)C)NC(=O)[C@@H]2CCCN2C(=O)CNC(=O)CNC(=O)[C@@H](NC(=O)CN)CSSC[C@@H](C(=O)N[C@@H](CCCCN)C(=O)N[C@@H](CO)C(N)=O)NC(=O)[C@H](CC(C)C)NC(=O)[C@H](CCCCN)NC(=O)[C@H](CCCCN)NC(=O)[C@H]([C@@H](C)CC)NC(=O)[C@H]([C@@H](C)CC)NC(=O)[C@H](CCCCN)NC(=O)[C@H](CCCCN)NC(=O)[C@H](Cc2ccc(O)cc2)NC(=O)[C@H](CC(C)C)NC(=O)[C@@H]2CCCN2C(=O)[C@H](C)NC(=O)CNC(=O)CNC(=O)[C@H](CO)NC(=O)CNC(=O)CNC(=O)[C@H](CO)NC(=O)[C@H](CCCCN)NC(=O)[C@H](CC(C)C)NC(=O)[C@H](CC(C)C)NC(=O)[C@H](CCCCN)NC(=O)[C@H](CCCCN)NC(=O)[C@H]([C@@H](C)CC)NC1=O; effect on = parasite growth; strain = 3D7; time = 72 h; notes = Albumax II medium, no serum; IC50 = 3.7 ± 0.2 µM
Compound = COC1=CC(c2ccc[nH]2)=NC1=CNC1CCCCC1; effect on = parasite growth; strain = 7G8, chloroquine-resistant; IC50 = 0.03 µM
Compound = CCCCNCC(O)Cn1c2ccc(Br)cc2c2cc(Br)ccc21 (stereo not shown); technique = SYBR Green I; strain = 3D7 chloroquine-sensitive; time = 72 h; IC50 = 0.492 ± 0.1 µM

A few entries again:
Compound = COC1=CC(c2ccc[nH]2)=NC12O[C@@H](C)C[C@@H]1CCCCC(=O)CCc3ccc([nH]3)[C@H]12 (stereo partly shown); effect on = parasite growth; strain = 7G8; notes = drug-resistant strain, blood stage; IC50 = 0.199 µM
Compound = COc1ccc(-c2cn(C3CCCC3)c3ncnc(N)c23)cc1; effect on = merozoite invasion of erythrocytes; strain = FVO; IC50 = 9.8 µM
Compound = COC(=O)[C@@H]1Cc2c([nH]c3ccccc23)[C@@H](c2cccnc2)N1; effect on = parasite growth; time = 48 h; notes = drug-resistant strain, blood stage; IC50 = 2.12 µg/mL
